Measurements from different studies.
“And” joins repeats or separate records; there may be more than shown.

Compound	target	effect on	technique	item	concentration	relative to	remaining binding
CCN1CCN(Cc2ccc(NC(=O)c3ccc(C)c(NC(=O)c4cncc(-c5cccs5)c4)c3)cc2C(F)(F)F)CC1	Tyrosine-protein kinase ABL1 (ABL1, Homo sapiens, UniProt P00519)	binding	competition with immobilised ligand		1 µM		0.3%
CN1CCN(Cc2ccc(NC(=O)c3cccc(C#Cc4cnc(N)c5ncccc45)c3)cc2C(F)(F)F)CC1	Tyrosine-protein kinase ABL1, phosphorylated (ABL1, Homo sapiens, UniProt P00519, E255K)	cell-free assay	competition with immobilised ligand		0.5 µM		1.5%
CNS(=O)(=O)Nc1nccc(Cc2c(C)c3ccc(Oc4ncccc4F)cc3oc2=O)c1F	Tyrosine-protein kinase ABL1, phosphorylated (ABL1, Homo sapiens, UniProt P00519, T315I)	binding	competition with immobilised ligand		10 µM		99%
CC(=O)N1c2ccc(-c3ccc(CNC(=O)c4cn5cc(-c6cnc(N)nc6)nc(N6CCOCC6)c5n4)cc3)cc2CC[C@@H]1C	Tyrosine-protein kinase ABL1, non-phosphorylated (ABL1, Homo sapiens, UniProt P00519)		KINOMEscan		10 µM		61%
C=CC(=O)N1CCc2ccc(-n3c(=O)ccc4cnc5ccc(-c6cnn(C)c6)cc5c43)cc21	Tyrosine-protein kinase ABL1, non-phosphorylated (ABL1, Homo sapiens, UniProt P00519, F317I)		KINOMEscan	(F317I)-nonphosphorylated	1 µM	control	100%
CC(C)=CC1OC(C)(C)C2C=C3C(=O)C(Cl)=CC(O)C3C3C(O)C4OC4C(=O)C132 (stereo not shown)	Tyrosine-protein kinase ABL1, phosphorylated (ABL1, Homo sapiens, UniProt P00519, Y253F)	cell-free assay	competition with immobilised ligand		10 µM		80%
COc1c(Cl)cccc1Nc1c(-c2ccncc2C#C[C@@]2(C)CCCN2C(=O)/C=C/CN(C)C)[nH]c2c1C(=O)NCC2	Tyrosine-protein kinase ABL1 (ABL1, Homo sapiens, UniProt P00519, Q252H)		KINOMEscan competition binding		3 µM	control	33% and 63%
Cc1ccc(-c2c(/C=C(\C#N)C(=O)NC(C)C)n(CCCO)c3ncnc(N)c23)cc1	Tyrosine-protein kinase ABL1, phosphorylated (ABL1, Homo sapiens, UniProt P00519, Q252H)	cell-free assay	competition with immobilised ligand		1 µM		91%
Nc1ncc2c(n1)-c1c([nH]c3ccc(C4=CCOCC4)cc13)CCC2	Tyrosine-protein kinase ABL1, phosphorylated (ABL1, Homo sapiens, UniProt P00519, M351T)	binding	competition with immobilised ligand		1 µM		100%
COc1ccc(NC(=O)Nc2ccc3c(c2)C(=O)N(C(C)CO)CC(C)C(CN(C)Cc2ccc4c(c2)OCO4)O3)cc1 (stereo not shown)	Tyrosine-protein kinase ABL1, phosphorylated (ABL1, Homo sapiens, UniProt P00519)	binding	competition with immobilised ligand		10 µM		88%
